# Published values gathered from unrelated publications.
# Parts stem from different laboratories: compare values within a part only.
# Chain of UniProt P05771 (whole entry, looked up): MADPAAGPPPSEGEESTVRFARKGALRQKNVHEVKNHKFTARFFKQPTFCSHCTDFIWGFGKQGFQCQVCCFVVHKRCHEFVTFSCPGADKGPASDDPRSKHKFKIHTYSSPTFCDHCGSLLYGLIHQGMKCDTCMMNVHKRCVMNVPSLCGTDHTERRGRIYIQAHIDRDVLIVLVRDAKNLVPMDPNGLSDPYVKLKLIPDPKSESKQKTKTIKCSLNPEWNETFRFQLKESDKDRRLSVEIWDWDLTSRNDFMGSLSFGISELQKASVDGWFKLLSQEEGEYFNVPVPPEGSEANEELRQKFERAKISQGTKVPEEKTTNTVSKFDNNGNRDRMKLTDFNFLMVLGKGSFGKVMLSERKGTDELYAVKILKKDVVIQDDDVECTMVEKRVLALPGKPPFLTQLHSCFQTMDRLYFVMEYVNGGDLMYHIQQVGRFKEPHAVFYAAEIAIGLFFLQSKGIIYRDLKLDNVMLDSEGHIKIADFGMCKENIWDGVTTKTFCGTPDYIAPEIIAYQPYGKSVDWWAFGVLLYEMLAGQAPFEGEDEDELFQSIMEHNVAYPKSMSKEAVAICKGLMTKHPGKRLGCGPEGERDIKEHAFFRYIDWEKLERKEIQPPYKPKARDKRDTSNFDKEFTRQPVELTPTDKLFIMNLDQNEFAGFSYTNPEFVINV
# Chain of UniProt P62253 (whole entry, looked up): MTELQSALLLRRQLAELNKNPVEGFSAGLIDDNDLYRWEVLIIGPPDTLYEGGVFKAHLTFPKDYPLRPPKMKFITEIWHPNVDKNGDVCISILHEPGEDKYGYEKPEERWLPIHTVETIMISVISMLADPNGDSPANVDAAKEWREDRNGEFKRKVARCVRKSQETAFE
# Chain of UniProt O14920 (whole entry, looked up): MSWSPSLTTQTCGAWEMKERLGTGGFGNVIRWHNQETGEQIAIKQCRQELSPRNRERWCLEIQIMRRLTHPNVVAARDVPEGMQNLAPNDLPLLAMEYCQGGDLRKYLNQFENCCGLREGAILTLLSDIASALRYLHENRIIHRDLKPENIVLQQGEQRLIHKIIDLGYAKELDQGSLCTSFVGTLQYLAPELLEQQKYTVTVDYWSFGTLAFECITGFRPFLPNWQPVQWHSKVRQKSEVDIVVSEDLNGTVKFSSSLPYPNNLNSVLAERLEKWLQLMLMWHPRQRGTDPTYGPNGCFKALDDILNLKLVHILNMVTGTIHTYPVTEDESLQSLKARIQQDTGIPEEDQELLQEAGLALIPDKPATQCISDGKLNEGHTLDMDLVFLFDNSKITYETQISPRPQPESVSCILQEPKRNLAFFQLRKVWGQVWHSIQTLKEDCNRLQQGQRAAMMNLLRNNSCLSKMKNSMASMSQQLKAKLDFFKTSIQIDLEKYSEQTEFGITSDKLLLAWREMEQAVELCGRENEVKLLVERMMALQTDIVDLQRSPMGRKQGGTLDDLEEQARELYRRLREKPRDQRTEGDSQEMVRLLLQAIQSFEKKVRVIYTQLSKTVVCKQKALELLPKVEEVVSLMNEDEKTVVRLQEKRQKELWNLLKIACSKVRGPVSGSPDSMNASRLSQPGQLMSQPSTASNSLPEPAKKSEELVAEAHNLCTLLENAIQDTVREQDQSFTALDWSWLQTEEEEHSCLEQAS
# Chain of UniProt Q99759 (whole entry, looked up): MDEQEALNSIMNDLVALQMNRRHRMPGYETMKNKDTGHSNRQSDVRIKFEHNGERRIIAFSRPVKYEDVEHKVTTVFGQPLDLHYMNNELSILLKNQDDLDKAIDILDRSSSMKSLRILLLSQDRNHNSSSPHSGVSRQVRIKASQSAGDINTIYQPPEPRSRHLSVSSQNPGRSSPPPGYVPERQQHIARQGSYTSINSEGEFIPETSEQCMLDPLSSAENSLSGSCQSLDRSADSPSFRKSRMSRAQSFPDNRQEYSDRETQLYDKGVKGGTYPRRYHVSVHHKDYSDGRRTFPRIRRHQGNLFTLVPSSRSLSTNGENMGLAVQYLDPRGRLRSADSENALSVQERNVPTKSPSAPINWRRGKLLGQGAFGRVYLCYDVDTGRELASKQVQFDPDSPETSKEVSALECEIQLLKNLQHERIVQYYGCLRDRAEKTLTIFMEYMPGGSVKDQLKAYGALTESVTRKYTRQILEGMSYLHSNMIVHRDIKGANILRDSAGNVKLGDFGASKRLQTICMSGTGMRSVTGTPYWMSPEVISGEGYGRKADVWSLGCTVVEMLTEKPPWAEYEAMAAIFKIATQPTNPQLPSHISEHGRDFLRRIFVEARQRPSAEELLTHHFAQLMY
# Chain of UniProt O94804 (whole entry, looked up): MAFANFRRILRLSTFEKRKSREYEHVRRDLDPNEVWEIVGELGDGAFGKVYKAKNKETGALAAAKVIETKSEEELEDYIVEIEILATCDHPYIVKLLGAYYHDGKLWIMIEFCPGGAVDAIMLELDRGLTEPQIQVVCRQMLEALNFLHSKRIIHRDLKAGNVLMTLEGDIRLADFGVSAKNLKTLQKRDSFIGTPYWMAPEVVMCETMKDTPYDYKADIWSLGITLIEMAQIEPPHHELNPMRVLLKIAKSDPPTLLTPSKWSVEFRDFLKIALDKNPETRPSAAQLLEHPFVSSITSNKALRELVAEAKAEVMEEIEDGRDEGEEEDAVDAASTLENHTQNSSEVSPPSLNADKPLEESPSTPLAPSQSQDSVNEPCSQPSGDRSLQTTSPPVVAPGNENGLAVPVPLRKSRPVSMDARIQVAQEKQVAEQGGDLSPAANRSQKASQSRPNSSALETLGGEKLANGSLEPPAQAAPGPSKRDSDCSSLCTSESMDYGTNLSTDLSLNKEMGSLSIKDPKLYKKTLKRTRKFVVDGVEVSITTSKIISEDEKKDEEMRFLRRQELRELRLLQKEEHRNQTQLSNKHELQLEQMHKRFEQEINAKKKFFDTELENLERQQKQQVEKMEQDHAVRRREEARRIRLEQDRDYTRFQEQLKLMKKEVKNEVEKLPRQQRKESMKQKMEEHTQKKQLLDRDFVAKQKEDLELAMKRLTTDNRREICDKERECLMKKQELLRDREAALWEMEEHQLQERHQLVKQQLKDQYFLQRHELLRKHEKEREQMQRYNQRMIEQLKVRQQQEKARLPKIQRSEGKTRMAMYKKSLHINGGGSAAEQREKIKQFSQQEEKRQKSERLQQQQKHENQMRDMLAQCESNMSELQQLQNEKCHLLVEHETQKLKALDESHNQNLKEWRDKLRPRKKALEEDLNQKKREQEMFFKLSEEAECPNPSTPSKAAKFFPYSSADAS
# Chain of UniProt Q16763 (whole entry, looked up): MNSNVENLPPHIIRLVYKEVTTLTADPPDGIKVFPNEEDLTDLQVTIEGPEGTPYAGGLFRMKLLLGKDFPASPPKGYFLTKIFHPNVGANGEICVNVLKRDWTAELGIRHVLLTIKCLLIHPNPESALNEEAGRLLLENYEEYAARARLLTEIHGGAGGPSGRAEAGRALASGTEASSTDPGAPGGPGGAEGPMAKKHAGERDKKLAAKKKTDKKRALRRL
# Chain of UniProt Q13557 (whole entry, looked up): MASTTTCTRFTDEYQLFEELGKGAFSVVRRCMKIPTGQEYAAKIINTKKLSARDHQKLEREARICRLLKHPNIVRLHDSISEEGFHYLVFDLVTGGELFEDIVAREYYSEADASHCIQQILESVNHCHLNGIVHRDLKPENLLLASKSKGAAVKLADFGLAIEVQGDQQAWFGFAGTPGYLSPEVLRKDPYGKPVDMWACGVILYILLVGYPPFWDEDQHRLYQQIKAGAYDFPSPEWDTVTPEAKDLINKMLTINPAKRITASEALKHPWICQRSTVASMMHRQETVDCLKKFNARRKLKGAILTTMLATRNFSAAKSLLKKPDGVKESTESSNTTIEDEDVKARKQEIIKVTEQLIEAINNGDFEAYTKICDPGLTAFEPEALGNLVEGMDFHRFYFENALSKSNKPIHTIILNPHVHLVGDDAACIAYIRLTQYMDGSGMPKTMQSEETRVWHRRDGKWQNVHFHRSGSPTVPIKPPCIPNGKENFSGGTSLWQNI
# Chain of UniProt Q712K3 (whole entry, looked up): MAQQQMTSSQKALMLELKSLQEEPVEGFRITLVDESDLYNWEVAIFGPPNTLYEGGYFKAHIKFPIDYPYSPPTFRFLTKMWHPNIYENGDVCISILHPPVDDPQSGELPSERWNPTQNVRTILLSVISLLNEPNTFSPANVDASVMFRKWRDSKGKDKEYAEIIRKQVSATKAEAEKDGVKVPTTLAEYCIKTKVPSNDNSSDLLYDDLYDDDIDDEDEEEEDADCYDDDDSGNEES
# Chain of UniProt P51668 (whole entry, looked up): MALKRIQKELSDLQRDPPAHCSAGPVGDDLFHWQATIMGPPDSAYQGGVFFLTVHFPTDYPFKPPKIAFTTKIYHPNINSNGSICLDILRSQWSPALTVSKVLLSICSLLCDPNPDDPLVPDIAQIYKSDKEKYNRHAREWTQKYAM

# Sample 1 — method: EMSA with sequencing; form: double-stranded DNA, one strand shown; matrix: in vitro; concentration: 10 and 20 nM; relative to: negative control set to 0; reading: higher = stronger binding
# Target: Hepatocyte nuclear factor 3-alpha (Foxa1, Mus musculus, UniProt P35582, residues 1-468, full length assumed)
# Setting: whole designed probe, mean of two concentrations, ends assumed
# Constant ends, left off below: GTGAGCGGTGCCCATTGATGGGGAAC … TTTCACTGGGATCGTGGGGAC
# Target sequence (chain): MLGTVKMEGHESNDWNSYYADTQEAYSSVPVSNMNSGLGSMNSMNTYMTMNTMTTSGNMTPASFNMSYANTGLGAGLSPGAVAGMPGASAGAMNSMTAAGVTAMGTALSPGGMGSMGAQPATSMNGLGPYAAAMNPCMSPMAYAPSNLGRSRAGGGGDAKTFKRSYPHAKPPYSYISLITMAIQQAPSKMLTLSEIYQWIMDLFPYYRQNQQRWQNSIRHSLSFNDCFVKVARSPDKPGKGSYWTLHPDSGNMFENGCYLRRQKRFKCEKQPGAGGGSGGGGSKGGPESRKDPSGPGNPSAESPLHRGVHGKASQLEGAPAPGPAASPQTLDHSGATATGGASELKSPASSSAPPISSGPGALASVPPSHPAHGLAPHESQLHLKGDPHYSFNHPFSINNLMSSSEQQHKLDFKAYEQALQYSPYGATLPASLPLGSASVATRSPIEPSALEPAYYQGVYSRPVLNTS
Sequence,normalised bound fraction [ratio]
CAGTATTTTTCTTTTTACATTAATATTCCCTTAAAAACATTACCTGGAATGATCCTCTGTGCATGGAGAAGTACACATTCTGCAATGATAAGTGTAATCTAAACTGAACATTTTATTTCTCCCTTTTTGCTATTCTCTGACCTGCAGTGCATTCCAATACTTTCTGCTTTCAGTTAACACGCAGTTCTTTATT,0.00128
AAACAGAGAACTGACCTTGTGGGAAATTGATATTCTTTAGGAATGGGAATGTCTAGGCAAATGGACAGAGATTACAAAGAGATGGAGCAATAGGCAATTTAGCAATTTTTTGGCAAACAAGGAGTAGTAAGGACCACGGGTGGCCACCCTCTCCACACATACGCTCACTCTCACCGAGGCATACACTTGCTCA,0.0739
GGGTCCCGGGCGGCGGCAGGAATGCAGGAATGCGCACAGGCTGTGGGCGGCCAGGAGGGAGTCGGCGGAAGTGCCGGCGCCTGCCCCAGTCTTTGTGTACCCTGTCCAACACCTCCCCCCGCCAGCGCGGAAGGCCGGGCTACCTGCGCGCCTGGCAGCGCCTGGCAGCCGGCTGGGTGGGGCGCAGGGGAGC,0.00193
TTTCAGTGTTCACATTTCCCGTTAAGAAAAAAAAACTAATTTTTTACATGCATCATCATTAATTAGTGTAGTTTAATTAGTGTTTAGCTAAAAAGTAATCTGGGACCTAAATTAAGTTTGTTAGACAGTGCTAGAATTTACTGGGCTCCAGTAAATTTCACCTGGGTTTCAGGCAGGAAGAAAGTAAGGATGT,-0.041
GGGTCCCGGGCGGCGGCAGGAATGCAGGAATGCGCACAGGCTGTGGGCGGCCAGGAGGGGGCGGAAGTGAGTCCCGGCGCCTGCCCCAGTCTTTGTGTACCCTGTCCAACACCTCCCCCCGCCAGCGCGGAAGGCCGGGCTACCTGCGCGCCTGGCAGCGCCTGGCAGCCGGCTGGGTGGGGCGCAGGGGAGC,0.000433
TTTCCAGCCCTTAGTTTCTGGCATTTAACCTGACTCTGGTCCCTGAATGGCATGGGAGTGCTCTGACTCATTCGTTTCCACATTCATGCCACTTGTTTGCTTTTCTGTCACATTCTGATCTACAGAGATCTTTATTTGCTTTGTGTTTCCAATGGAGAAAGAGCTTGGGAAGGGAGGATCCTAATTGTCTAAA,0.482
AGTGGCAGGTTCCCTGCTGGGATTTAGCTGGAGAACAAAGTAAGTTTGCATAATGAGTGTGAGAGCTGTAAAGAATAAACTGTGAAGTGCTGTGCAATTTTTAGCTCTCCTGTCTCTTCCAGCTCTGGCCTTCCCTTAACAGTGTGGCTGAAAGCCCTTTGTCTGAGGACAAGGACAGATAAGCTAGTTAGAG,0.0255
GTGTGTGCGCGCGCGTGTGTGTGTGTTTTCTTAAGCCGGGCTATTCAAACCCTGCTGCAATTCTCCGGTAAACAATGTTACATGGGGCATAATGCAAATAAACGGATTGCAAACGGCGCGGTTCCAATGATTCATAGCCGGCCCGGTGGAGCAGCCAGTGCCGGATTTCTCCCTTTTTTTGCAGATCTGCAGA,0.428

# Sample 2 — method: protein-binding microarray; form: hairpin DNA; matrix: in vitro; concentration: not given; relative to: not given; reading: higher = stronger binding
# Target: Cellular tumor antigen p53, full length (TP53, Homo sapiens, UniProt P04637, residues 1-393)
# Setting: whole hairpin DNA, median over replicate spots
Sequence,median fluorescence [a.u.]
CGGACATGCCCGGACATGTCTCCTGACATGTCCGGGCATGTCCGACACTC,20300
CCACACGTGGTGGAATGCCTTCCTAGGCATTCCACCACGTGTGGACACTC,4110
CCACACGTGGCGGCATGCCTTCCTAGGCATGCCGCCACGTGTGGACACTC,7510
CGGACATGCCCGGGCATGTCTCCTGACATGCCCGGGCATGTCCGACACTC (5mC at 11),21300
CCACACGTGGCGGCATGCCTTCCTAGGCATGCCGCCACGTGTGGACACTC (5mC at 11 33),6660
CCACAGGTGGTGGCATGCCTTCCTAGGCATGCCACCACCTGTGGACACTC,7850
CGGACATGCCCGGGCATGTCTCCTGACATGCCCGGGCATGTCCGACACTC,23100
CCACACGTGCTGGCATGCCTTCCTAGGCATGCCAGCACGTGTGGACACTC,7550

# Sample 3 — Sequence: B1 (RC3H2 RING domain); method: yeast two-hybrid; matrix: yeast; setting: mostly zero background; relative to: not given; reading: higher = stronger interaction
# B1: RC3H2 RING domain (UniProt Q9HBD1); chain QAAQWTEFLSCPICYNEFDENVHKPISLGCSHTVCKTCLNKLHRKACPFDQTAINTDIDVL
target,lacZ reporter activity
UBE2D1 UBC core domain (UniProt P51668),0
UBE2R2 UBC core domain (UniProt Q712K3),0
BIRC6 UBC core domain (UniProt Q9NR09),0
UBE2E3 UBC core domain (UniProt Q969T4),0
UBE2Z UBC core domain (UniProt Q9H832),0
UBE2G1 UBC core domain (UniProt P62253),0
UBE2L3 UBC core domain (UniProt P68036),0
UBE2S UBC core domain (UniProt Q16763),0

# Sample 4 — read-out: enzyme activity; action: inhibitor; concentration: 0.5 µM; relative to: control
# Compound: O=C1Nc2ccc(Br)cc2/C1=C/c1cc2c([nH]1)CCCC2
target,remaining activity [%]
"Serine/threonine-protein kinase Nek2 (NEK2, Homo sapiens, UniProt P51955)",87.9
"Cyclin-dependent kinase 4, with cyclin D1 (CDK4, Homo sapiens, UniProt P11802)",97.9
"Death-associated protein kinase 2 (DAPK2, Homo sapiens, UniProt Q9UIK4)",102
"Inhibitor of nuclear factor kappa-B kinase subunit epsilon (IKBKE, Homo sapiens, UniProt Q14164)",89.5
"Protein kinase C beta type, isoform beta-I (PRKCB, Homo sapiens, UniProt P05771)",97.4
"Serine/threonine-protein kinase 10 (STK10, Homo sapiens, UniProt O94804)",65.5
"Inhibitor of nuclear factor kappa-B kinase subunit beta (IKBKB, Homo sapiens, UniProt O14920)",102
"Calcium/calmodulin-dependent protein kinase type II subunit delta (CAMK2D, Homo sapiens, UniProt Q13557)",84.2
"STE20/SPS1-related proline-alanine-rich protein kinase (STK39, Homo sapiens, UniProt Q9UEW8)",86
"Serine/threonine-protein kinase OSR1 (OXSR1, Homo sapiens, UniProt O95747)",96.7
"Death-associated protein kinase 1 (DAPK1, Homo sapiens, UniProt P53355)",111
"G protein-coupled receptor kinase 3 (GRK3, Homo sapiens, UniProt P35626)",89.9
"Protein kinase C alpha type (PRKCA, Homo sapiens, UniProt P17252)",102
"Mitogen-activated protein kinase kinase kinase 3 (MAP3K3, Homo sapiens, UniProt Q99759)",88.5
"Serine/threonine-protein kinase Chk2 (CHEK2, Homo sapiens, UniProt O96017)",68.2
"Cyclin-dependent kinase 5, with p25 (CDK5, Homo sapiens, UniProt Q00535)",91.3
"TGF-beta receptor type-2 (TGFBR2, Homo sapiens, UniProt P37173)",101
"cGMP-dependent protein kinase 1, isoform beta (PRKG1, Homo sapiens, UniProt Q13976)",87.9
"Serine/threonine-protein kinase STK11 (STK11, Homo sapiens, UniProt Q15831)",88.7
"Calcium/calmodulin-dependent protein kinase kinase 2 (CAMKK2, Homo sapiens, UniProt Q96RR4)",68.1
"cAMP-dependent protein kinase catalytic subunit alpha (PRKACA, Homo sapiens, UniProt P17612)",96.5
"TGF-beta receptor type-1 (TGFBR1, Homo sapiens, UniProt P36897)",100
"Tyrosine-protein kinase Lyn, isoform B (LYN, Homo sapiens, UniProt P07948)",86.8
"Mitogen-activated protein kinase 9 (MAPK9, Homo sapiens, UniProt P45984)",99.4

# Further values, each from its own experiment
Compound,cell line,assay,conditions,how to read,measurement,result
O=C(NCc1ncc(C(F)(F)F)cc1Cl)c1ccc2c(c1)C1(CCS(=O)(=O)CC1)[C@@H](C1CC1)N2S(=O)(=O)c1ccc(F)cc1,sample G normal colon organoid,CellTiter-Glo,"1 µM, 4 days",relative to: DMSO,viability,102%

# Repeated from above (sample 1):
Sequence,normalised bound fraction [ratio]
AAACAGAGAACTGACCTTGTGGGAAATTGATATTCTTTAGGAATGGGAATGTCTAGGCAAATGGACAGAGATTACAAAGAGATGGAGCAATAGGCAATTTAGCAATTTTTTGGCAAACAAGGAGTAGTAAGGACCACGGGTGGCCACCCTCTCCACACATACGCTCACTCTCACCGAGGCATACACTTGCTCA,0.0739
GGGTCCCGGGCGGCGGCAGGAATGCAGGAATGCGCACAGGCTGTGGGCGGCCAGGAGGGAGTCGGCGGAAGTGCCGGCGCCTGCCCCAGTCTTTGTGTACCCTGTCCAACACCTCCCCCCGCCAGCGCGGAAGGCCGGGCTACCTGCGCGCCTGGCAGCGCCTGGCAGCCGGCTGGGTGGGGCGCAGGGGAGC,0.00193
TTTCAGTGTTCACATTTCCCGTTAAGAAAAAAAAACTAATTTTTTACATGCATCATCATTAATTAGTGTAGTTTAATTAGTGTTTAGCTAAAAAGTAATCTGGGACCTAAATTAAGTTTGTTAGACAGTGCTAGAATTTACTGGGCTCCAGTAAATTTCACCTGGGTTTCAGGCAGGAAGAAAGTAAGGATGT,-0.041
GGGTCCCGGGCGGCGGCAGGAATGCAGGAATGCGCACAGGCTGTGGGCGGCCAGGAGGGGGCGGAAGTGAGTCCCGGCGCCTGCCCCAGTCTTTGTGTACCCTGTCCAACACCTCCCCCCGCCAGCGCGGAAGGCCGGGCTACCTGCGCGCCTGGCAGCGCCTGGCAGCCGGCTGGGTGGGGCGCAGGGGAGC,0.000433
TTTCCAGCCCTTAGTTTCTGGCATTTAACCTGACTCTGGTCCCTGAATGGCATGGGAGTGCTCTGACTCATTCGTTTCCACATTCATGCCACTTGTTTGCTTTTCTGTCACATTCTGATCTACAGAGATCTTTATTTGCTTTGTGTTTCCAATGGAGAAAGAGCTTGGGAAGGGAGGATCCTAATTGTCTAAA,0.482
AGTGGCAGGTTCCCTGCTGGGATTTAGCTGGAGAACAAAGTAAGTTTGCATAATGAGTGTGAGAGCTGTAAAGAATAAACTGTGAAGTGCTGTGCAATTTTTAGCTCTCCTGTCTCTTCCAGCTCTGGCCTTCCCTTAACAGTGTGGCTGAAAGCCCTTTGTCTGAGGACAAGGACAGATAAGCTAGTTAGAG,0.0255
GTGTGTGCGCGCGCGTGTGTGTGTGTTTTCTTAAGCCGGGCTATTCAAACCCTGCTGCAATTCTCCGGTAAACAATGTTACATGGGGCATAATGCAAATAAACGGATTGCAAACGGCGCGGTTCCAATGATTCATAGCCGGCCCGGTGGAGCAGCCAGTGCCGGATTTCTCCCTTTTTTTGCAGATCTGCAGA,0.428
